Assay results of several laboratories.
“And” joins repeats or separate records; there may be more than shown. ± marks the error that the study gave.

By UniProt entry, the sequences of proteins in these tests, tags left out. Where a name states a change or a piece, a line headed by the entry shows the natural chain unless it says otherwise. Residues count along the entry.
UniProt P30989, whole entry: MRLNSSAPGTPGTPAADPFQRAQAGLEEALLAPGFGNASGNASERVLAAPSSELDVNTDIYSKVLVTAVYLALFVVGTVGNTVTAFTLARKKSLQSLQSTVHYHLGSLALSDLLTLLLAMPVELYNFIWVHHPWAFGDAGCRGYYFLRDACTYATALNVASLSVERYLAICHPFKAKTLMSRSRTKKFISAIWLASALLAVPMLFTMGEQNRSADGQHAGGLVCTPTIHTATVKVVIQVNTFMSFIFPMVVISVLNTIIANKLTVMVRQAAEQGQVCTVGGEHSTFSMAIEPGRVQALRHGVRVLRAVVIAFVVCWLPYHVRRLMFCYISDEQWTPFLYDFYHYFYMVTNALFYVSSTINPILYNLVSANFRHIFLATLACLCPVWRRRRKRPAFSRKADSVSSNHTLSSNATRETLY
UniProt P25090, whole entry: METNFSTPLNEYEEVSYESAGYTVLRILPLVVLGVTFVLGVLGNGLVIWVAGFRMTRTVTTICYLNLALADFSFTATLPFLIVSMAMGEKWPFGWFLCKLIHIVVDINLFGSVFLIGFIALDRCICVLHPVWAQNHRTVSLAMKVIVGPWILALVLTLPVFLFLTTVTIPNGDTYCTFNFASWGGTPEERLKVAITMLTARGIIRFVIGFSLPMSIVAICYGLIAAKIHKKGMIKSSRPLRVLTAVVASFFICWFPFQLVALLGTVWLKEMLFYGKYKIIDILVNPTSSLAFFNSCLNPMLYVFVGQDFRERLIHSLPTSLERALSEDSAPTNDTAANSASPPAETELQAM
UniProt P07949, whole entry, looked up, stated change not applied: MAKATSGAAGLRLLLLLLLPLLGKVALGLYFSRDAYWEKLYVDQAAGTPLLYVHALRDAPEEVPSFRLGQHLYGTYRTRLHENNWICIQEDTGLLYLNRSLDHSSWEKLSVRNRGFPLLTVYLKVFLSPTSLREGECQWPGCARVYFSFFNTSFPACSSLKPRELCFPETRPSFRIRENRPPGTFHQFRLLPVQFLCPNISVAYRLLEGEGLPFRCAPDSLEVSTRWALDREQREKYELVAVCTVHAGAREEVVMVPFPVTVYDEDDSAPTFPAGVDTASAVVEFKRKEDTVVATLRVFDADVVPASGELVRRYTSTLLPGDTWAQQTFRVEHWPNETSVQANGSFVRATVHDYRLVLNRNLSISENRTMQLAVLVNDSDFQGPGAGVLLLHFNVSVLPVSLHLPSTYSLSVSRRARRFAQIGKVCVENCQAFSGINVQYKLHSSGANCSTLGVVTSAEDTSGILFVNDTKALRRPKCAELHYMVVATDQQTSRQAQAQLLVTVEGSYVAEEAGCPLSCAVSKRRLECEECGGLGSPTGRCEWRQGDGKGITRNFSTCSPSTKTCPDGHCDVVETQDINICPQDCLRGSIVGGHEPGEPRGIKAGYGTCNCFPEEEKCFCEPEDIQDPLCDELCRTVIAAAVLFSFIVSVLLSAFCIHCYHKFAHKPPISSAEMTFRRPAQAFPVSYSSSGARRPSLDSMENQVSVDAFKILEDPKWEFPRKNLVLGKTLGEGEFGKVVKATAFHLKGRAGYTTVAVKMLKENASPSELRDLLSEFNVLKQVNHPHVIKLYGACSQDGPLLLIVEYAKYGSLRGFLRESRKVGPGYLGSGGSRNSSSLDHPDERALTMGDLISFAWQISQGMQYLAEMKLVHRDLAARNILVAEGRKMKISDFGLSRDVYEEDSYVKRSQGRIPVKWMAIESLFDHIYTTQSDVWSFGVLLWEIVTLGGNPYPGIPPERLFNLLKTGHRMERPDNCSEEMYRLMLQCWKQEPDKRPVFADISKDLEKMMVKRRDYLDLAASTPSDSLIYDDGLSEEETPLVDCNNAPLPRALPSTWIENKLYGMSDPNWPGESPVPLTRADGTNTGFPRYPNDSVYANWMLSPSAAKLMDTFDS
UniProt Q8TF76, whole entry: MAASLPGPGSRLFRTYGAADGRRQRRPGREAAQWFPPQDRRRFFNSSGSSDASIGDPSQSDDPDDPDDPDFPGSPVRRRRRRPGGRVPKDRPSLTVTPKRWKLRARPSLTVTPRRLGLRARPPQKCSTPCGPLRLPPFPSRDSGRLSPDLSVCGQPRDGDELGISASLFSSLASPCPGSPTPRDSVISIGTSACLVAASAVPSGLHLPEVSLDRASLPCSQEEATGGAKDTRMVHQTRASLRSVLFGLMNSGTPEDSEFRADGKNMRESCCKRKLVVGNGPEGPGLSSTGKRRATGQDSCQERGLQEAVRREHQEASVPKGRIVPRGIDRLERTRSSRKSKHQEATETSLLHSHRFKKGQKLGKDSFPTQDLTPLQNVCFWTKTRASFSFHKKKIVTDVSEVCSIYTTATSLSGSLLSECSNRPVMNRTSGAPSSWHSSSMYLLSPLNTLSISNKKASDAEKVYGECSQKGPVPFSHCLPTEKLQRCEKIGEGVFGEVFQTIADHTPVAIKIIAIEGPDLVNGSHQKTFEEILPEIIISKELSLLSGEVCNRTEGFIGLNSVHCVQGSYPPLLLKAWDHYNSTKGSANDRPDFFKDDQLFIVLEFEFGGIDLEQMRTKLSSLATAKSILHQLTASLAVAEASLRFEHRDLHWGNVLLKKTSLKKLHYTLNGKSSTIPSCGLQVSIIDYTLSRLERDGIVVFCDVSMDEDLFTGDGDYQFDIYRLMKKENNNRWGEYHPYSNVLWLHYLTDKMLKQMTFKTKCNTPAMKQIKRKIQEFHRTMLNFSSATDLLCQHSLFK
UniProt P05067, 672-713 limits assumed: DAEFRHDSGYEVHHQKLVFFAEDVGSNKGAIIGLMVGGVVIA
UniProt Q9UBN7, whole entry: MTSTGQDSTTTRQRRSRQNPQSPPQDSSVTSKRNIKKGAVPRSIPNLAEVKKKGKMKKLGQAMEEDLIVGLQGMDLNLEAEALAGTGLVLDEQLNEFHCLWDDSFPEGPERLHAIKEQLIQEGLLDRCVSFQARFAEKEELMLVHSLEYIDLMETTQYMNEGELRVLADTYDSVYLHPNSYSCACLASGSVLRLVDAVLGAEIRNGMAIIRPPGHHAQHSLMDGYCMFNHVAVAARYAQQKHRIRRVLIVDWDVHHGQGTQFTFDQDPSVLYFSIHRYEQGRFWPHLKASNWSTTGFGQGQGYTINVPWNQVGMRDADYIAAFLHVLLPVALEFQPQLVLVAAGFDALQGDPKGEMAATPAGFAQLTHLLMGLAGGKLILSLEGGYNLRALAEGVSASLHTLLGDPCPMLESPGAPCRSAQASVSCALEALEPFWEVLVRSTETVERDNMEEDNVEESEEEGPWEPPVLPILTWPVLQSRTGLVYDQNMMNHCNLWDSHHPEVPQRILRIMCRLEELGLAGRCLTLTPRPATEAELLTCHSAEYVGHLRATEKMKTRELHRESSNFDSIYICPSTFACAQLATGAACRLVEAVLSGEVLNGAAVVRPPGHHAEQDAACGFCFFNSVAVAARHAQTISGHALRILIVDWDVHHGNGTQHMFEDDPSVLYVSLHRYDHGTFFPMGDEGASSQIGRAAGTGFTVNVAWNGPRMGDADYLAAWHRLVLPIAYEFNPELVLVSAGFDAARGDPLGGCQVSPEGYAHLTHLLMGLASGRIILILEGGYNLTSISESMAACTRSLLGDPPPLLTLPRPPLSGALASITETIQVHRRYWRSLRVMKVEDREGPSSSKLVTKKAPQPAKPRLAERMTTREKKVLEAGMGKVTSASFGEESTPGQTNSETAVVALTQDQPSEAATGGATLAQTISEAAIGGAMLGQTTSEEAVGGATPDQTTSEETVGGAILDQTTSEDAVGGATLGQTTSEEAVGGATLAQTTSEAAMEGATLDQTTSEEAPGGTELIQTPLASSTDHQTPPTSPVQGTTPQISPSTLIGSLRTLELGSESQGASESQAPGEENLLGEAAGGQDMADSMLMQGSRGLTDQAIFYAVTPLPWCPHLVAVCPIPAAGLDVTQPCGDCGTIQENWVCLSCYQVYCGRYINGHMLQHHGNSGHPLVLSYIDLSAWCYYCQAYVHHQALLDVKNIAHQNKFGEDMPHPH
UniProt P04629, 33-796 limits assumed: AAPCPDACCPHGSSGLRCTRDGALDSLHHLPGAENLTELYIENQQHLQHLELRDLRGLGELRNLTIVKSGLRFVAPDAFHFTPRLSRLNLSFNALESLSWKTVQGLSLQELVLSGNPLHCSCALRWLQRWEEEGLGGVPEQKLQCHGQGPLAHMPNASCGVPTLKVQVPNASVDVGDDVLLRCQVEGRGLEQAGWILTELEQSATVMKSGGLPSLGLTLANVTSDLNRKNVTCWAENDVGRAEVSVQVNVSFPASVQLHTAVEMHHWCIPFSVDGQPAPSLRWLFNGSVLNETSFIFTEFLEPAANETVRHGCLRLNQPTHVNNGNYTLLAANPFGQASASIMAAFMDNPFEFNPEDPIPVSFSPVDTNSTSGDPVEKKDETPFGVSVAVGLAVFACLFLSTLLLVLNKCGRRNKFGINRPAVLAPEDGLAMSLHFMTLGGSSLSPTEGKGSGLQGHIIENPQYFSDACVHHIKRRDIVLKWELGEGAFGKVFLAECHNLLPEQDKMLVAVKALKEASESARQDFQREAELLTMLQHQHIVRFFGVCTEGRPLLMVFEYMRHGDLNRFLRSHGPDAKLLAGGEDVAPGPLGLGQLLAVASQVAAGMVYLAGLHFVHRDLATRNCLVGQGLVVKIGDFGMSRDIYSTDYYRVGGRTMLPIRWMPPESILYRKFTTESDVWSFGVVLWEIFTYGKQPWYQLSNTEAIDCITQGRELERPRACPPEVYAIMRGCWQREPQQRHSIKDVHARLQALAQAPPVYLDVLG
UniProt P19784, whole entry: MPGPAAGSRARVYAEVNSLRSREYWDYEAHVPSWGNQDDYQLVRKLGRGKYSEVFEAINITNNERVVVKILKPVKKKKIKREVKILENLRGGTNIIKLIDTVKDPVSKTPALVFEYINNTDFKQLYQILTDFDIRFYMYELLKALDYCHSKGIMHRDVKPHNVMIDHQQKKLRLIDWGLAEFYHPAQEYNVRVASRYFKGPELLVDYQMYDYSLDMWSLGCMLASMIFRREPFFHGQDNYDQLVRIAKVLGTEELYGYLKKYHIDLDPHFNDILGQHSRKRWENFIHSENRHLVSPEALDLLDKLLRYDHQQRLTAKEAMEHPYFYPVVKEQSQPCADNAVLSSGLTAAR
UniProt P14902, whole entry: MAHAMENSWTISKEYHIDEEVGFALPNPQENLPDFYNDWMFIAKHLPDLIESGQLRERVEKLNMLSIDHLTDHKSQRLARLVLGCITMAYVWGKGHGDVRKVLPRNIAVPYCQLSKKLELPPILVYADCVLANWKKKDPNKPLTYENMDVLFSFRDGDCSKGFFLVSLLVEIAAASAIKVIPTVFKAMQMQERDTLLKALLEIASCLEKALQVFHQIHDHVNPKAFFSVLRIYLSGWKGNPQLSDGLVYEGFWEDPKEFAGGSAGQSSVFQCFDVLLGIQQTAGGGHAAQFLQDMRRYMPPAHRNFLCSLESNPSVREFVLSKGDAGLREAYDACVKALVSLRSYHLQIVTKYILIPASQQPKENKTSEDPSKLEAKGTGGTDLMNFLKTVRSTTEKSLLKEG
UniProt O00311, whole entry: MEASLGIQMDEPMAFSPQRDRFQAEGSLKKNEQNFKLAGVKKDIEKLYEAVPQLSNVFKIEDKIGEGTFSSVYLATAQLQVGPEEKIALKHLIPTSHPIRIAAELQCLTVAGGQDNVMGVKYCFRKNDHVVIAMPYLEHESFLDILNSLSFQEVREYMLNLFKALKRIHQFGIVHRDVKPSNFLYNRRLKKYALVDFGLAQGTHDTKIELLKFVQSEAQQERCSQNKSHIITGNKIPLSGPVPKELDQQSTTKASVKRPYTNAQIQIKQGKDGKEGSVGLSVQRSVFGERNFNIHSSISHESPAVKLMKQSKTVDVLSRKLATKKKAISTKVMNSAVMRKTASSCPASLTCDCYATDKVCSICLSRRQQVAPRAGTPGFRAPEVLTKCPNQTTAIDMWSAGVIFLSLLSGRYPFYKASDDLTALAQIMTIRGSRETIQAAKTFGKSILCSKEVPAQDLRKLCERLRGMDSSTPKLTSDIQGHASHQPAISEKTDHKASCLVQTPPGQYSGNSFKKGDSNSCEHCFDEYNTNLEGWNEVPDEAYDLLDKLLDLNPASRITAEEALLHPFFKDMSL
UniProt O00748, 27-559 limits assumed: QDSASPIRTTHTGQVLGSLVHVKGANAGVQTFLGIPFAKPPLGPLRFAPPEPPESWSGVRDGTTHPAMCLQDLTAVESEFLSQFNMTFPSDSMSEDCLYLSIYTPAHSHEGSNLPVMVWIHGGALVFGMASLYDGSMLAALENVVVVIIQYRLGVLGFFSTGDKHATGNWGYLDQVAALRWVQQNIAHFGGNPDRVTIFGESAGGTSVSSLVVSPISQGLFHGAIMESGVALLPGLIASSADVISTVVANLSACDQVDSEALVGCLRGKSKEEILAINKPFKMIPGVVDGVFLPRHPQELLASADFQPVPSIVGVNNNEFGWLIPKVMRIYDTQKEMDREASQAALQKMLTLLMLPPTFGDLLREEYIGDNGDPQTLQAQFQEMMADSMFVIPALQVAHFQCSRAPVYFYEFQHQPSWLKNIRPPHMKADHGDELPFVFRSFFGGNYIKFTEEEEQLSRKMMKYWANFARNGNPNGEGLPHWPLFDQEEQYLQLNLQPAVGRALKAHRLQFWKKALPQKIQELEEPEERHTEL

For `COc1cc2ncnc(Oc3ccc(NC(=O)c4c5n(n(-c6ccc(F)cc6Cl)c4=O)CCCC5)cc3F)c2cc1OC`, the IC50 was 13.5 ± 1.8 nM (Tyrosine-protein kinase receptor UFO (AXL, Homo sapiens, UniProt P30530); inhibitor, ELISA).
`COc1cccc(OC)c1-c1cc(C(=O)NC2(C(=O)O)C3CC4CC(C3)CC2C4)nn1-c1ccc(C(=O)N(C)CCCN(C)CCCN(C)C(=O)CN2CCN(CC(=O)O)CCN(CC(=O)O)CCN(CC(=O)O)CC2)cc1C(C)C` (stereo not shown) gave an IC50 of 9.6 nM and 8.3 nM (Neurotensin receptor type 1 (NTSR1, Homo sapiens, UniProt P30989); binding, competitive radioligand binding; HT-29; 40 min, 37 °C, added: [177Lu]Lu-compound radioligand).
For `COc1ccc(NC(=O)N[C@@H](Cc2ccc(C#N)cc2)C(=O)NCC2(c3ccc(O)cc3)CC2)cc1`, the IC50 was 3700 ± 1300 nM (N-formyl peptide receptor 2 (FPR2, Homo sapiens, UniProt P25090); calcium mobilization; FPR2-transfected HL-60; desensitization pretreatment, added: WKYMVM 5 nM).
With `CN1CCN(Cc2ccc(NC(=O)c3cncc(C#Cc4c(N)ncc5ccc(F)cc45)c3)cc2C(F)(F)F)CC1` the IC50 was 7.3 ± 0.22 nM (Kinesin-1 heavy chain/ Tyrosine-protein kinase receptor RET (RET/KIF5B, Homo sapiens, UniProt P07949+P33176, G810V); cell viability, inhibitor, CellTiter-Glo; Ba/F3 KIF5B-RET G810V).
The IC50 of `Cc1ccc(SCC(=O)Nc2ccc3nc(SCC(=O)NC(C)C)sc3c2)cc1` is reported as > 50000 nM (Estrogen receptor (ESR1, Homo sapiens, UniProt P03372); reporter gene, antagonist; HEC-1 transfected ERα luciferase reporter).
`O=c1[nH]c2ccc(S(=O)(=O)N3CCN(c4ccccc4)CC3)cc2o1` has an IC50 of 4000 nM (Nucleotide triphosphate diphosphatase NUDT15 (NUDT15, Homo sapiens, UniProt Q9NV35); enzyme activity, inhibitor, malachite green; added: dGTP).
With `CNCCCSc1c2cc(OC)ccc2nc2ccc(OC)cc12` the IC50 was 8 nM (Serine/threonine-protein kinase haspin (HASPIN, Homo sapiens, UniProt Q8TF76); inhibitor, TR-FRET; added: histone H3 peptide).
`CC(=O)N(CC#Cc1cccc(C(N)=O)c1)C[C@H]1C[C@@H](n2ccc3c(Cl)ncnc32)[C@H](O)[C@@H]1O` gave an IC50 of > 100000 nM (Histone-lysine N-methyltransferase EHMT2 (EHMT2, Homo sapiens, UniProt Q96KQ7); enzyme activity, inhibitor, SAHH-coupled fluorescence).
The IC50 of `COCOc1ccc(/C=C/C(=O)C(CCC(=O)OC)C(=O)/C=C/c2ccc(OCOC)c(OC(F)(F)F)c2)cc1OC(F)(F)F` is reported as 4710 nM (Amyloid-beta precursor protein, Aβ aggregates (APP, Homo sapiens, UniProt P05067); binding, thioflavin T competition).
The IC50 of `Cc1n[nH]c(C)c1-c1ccc(C2(c3ccc(Cl)cc3)CCNCC2)cc1` is reported as 51 nM (RAC-alpha serine/threonine-protein kinase (AKT1, Homo sapiens, UniProt P31749); kinase activity, inhibitor, radiometric HotSpot; added: ATP 10 µM).
For `O=C(NO)c1cccc(F)c1F`, the IC50 was 747 nM (Protein deacetylase HDAC6 (HDAC6, Homo sapiens, UniProt Q9UBN7); enzyme activity, inhibitor, electrophoretic mobility shift; added: FAM-RHKK(Ac)-NH2 1 µM).
`Cn1nc(-c2ccc(CC(=O)Nc3cc(C(C)(C)C)on3)cc2)c2c(N)ncnc21` gave an IC50 of 200 nM and 202 nM (High affinity nerve growth factor receptor (NTRK1, Homo sapiens, UniProt P04629); inhibitor).
The IC50 of `CC(=O)Nc1ccc2cnn(-c3cc(NC4CC4)n4ncc(C#N)c4n3)c2c1` is reported as 20 nM (Casein kinase II subunit alpha' (CSNK2A2, Homo sapiens, UniProt P19784); target engagement, NanoBRET; HEK293).
The IC50 of `CN1CC[C@H](c2c(O)cc(O)c3c(=O)cc(-c4ccccc4F)oc23)[C@H](O)C1` is reported as 2 nM (Cyclin-dependent kinase 9, with cyclin T1 (CDK9, Homo sapiens, UniProt P50750); ATP at Km).
`COc1ccc2[nH]cc(/C=C/c3cccc([N+](=O)[O-])c3)c2c1` has an IC50 of > 100000 nM (Indoleamine 2,3-dioxygenase 1 (IDO1, Homo sapiens, UniProt P14902); enzyme activity, inhibitor).
For `CN(CCCOc1ccc(CC2SC(=O)NC2=O)cc1)c1ccccn1` (stereo not shown), the IC50 was 2400 ± 500 nM (Long-chain-fatty-acid--CoA ligase 4 (ACSL4, Homo sapiens, UniProt O60488); enzyme activity, inhibitor, EnzChek pyrophosphate).
`CC(C)[C@H](N)c1nc2cc(-c3cnoc3)sc2c(=O)[nH]1` has an IC50 of > 10000 nM (Cell division cycle 7-related protein kinase (CDC7, Homo sapiens, UniProt O00311); enzyme activity, inhibitor).
`COc1cc2c(cc1OC)C(=O)/C(=C/c1ccccc1OC(=O)N(c1ccccc1)c1ccccc1)C2` has an IC50 of 306 ± 26.7 nM (Cocaine esterase (CES2, Homo sapiens, UniProt O00748); inhibitor; 33 min preincubation, added: fluorescein diacetate).
The IC50 of `O=C(Nc1cccc(-c2nc3ccccc3s2)c1)c1ccc([N+](=O)[O-])cc1` is reported as > 100000 nM (Tyrosine-protein kinase SYK, with FCER1G (SYK, Homo sapiens, UniProt P43405); protein binding, inhibitor, TR-FRET).

Excerpt of the above:
For `CN(CCCOc1ccc(CC2SC(=O)NC2=O)cc1)c1ccccn1` (stereo not shown), the IC50 was 2400 ± 500 nM (Long-chain-fatty-acid--CoA ligase 4 (ACSL4, Homo sapiens, UniProt O60488); enzyme activity, inhibitor, EnzChek pyrophosphate).
`CC(C)[C@H](N)c1nc2cc(-c3cnoc3)sc2c(=O)[nH]1` has an IC50 of > 10000 nM (Cell division cycle 7-related protein kinase (CDC7, Homo sapiens, UniProt O00311); enzyme activity, inhibitor).
